Published values collected from several papers.
“And” joins repeats or separate records; there may be more than shown. ± marks the error that the study gave.

`CC(=O)NCCCC[C@@H]1NC(=O)[C@H](Cc2c[nH]c3c(C)cccc23)NC(=O)[C@H]([C@@H](C)O)NC(=O)[C@H](CC(N)=O)NC(=O)[C@@H](NC(C)=O)C(C)(C)SSC(C)(C)[C@@H](C(=O)N[C@@H](Cc2ccc(OCCN)cc2)C(=O)N[C@@H](Cc2ccc3ccccc3c2)C(=O)NC2(C(=O)N[C@@H](CCC(=O)O)C(=O)N[C@@H](CC(N)=O)C(=O)N[C@@H](Cc3cccnc3)C(=O)N(C)CC(N)=O)CCOCC2)NC1=O`: “blood to plasma ratio” 0.84 ± 0.03 (rat, blood; 0.13 µM, 2 h).
`CC(C)N1CCCCC1C(=O)NC(Cc1ccc(-c2ccccc2)cc1)B(O)O` (stereo not drawn) has a blood concentration of 89 ng/mL (SCID mouse, P. falciparum model, blood; oral, 25 mg/kg, 2 h).
For `CC1(C)C(=O)N(c2ccc(C#N)c(C(F)(F)F)c2)C(=S)N1c1ccc(C(N)=O)c(F)c1`, the Tmax was 168 h (male human, plasma; oral, 80 mg, single dose, fasted).
`C#Cc1c(F)ccc2cc(O)cc(-c3ncc4c(N5CC6CCC(C5)N6C(=O)OC(C)OC(=O)CC)nc(OC[C@@]56CCCN5C[C@H](F)C6)nc4c3F)c12` (stereo partly drawn) has a compound remaining of 96.4% (chemical stability; simulated intestinal fluid; 1 µM, 30 min).
`CSCC[C@H](N)C(=O)N[C@@H](C)C(=O)N[C@@H](Cc1c[nH]c2ccccc12)C(=O)N[C@@H](Cc1c[nH]cn1)C(=O)N[C@@H](CC(=O)O)C(=O)N[C@@H](CC(=O)O)C(=O)N[C@@H](CCC(=O)O)C(=O)N[C@@H](CCC(=O)O)C(=O)N[C@@H](Cc1ccccc1)C(=O)N[C@@H](C)C(=O)N[C@@H](CCCNC(=N)N)C(=O)N[C@@H](CCCNC(=N)N)C(=O)N[C@@H](CCCNC(=N)N)C(=O)N[C@@H](CCCNC(=N)N)C(=O)NCCCCCC(=O)NCCCCC(NC(=O)CCCCCNC(=O)[C@H](CCCNC(=N)N)NC(=O)[C@H](CCCNC(=N)N)NC(=O)[C@H](CCCNC(=N)N)NC(=O)[C@H](CCCNC(=N)N)NC(=O)[C@H](C)NC(=O)[C@H](Cc1ccccc1)NC(=O)[C@H](CCC(=O)O)NC(=O)[C@H](CCC(=O)O)NC(=O)[C@H](CC(=O)O)NC(=O)[C@H](CC(=O)O)NC(=O)[C@H](Cc1c[nH]cn1)NC(=O)[C@H](Cc1c[nH]c2ccccc12)NC(=O)[C@H](C)NC(=O)[C@@H](N)CCSC)C(=O)NCCCCC(NC(=O)C(CCCCNC(=O)CCCCCNC(=O)[C@H](CCCNC(=N)N)NC(=O)[C@H](CCCNC(=N)N)NC(=O)[C@H](CCCNC(=N)N)NC(=O)[C@H](CCCNC(=N)N)NC(=O)[C@H](C)NC(=O)[C@H](Cc1ccccc1)NC(=O)[C@H](CCC(=O)O)NC(=O)[C@H](CCC(=O)O)NC(=O)[C@H](CC(=O)O)NC(=O)[C@H](CC(=O)O)NC(=O)[C@H](Cc1c[nH]cn1)NC(=O)[C@H](Cc1c[nH]c2ccccc12)NC(=O)[C@H](C)NC(=O)[C@@H](N)CCSC)NC(=O)CCCCCNC(=O)[C@H](CCCNC(=N)N)NC(=O)[C@H](CCCNC(=N)N)NC(=O)[C@H](CCCNC(=N)N)NC(=O)[C@H](CCCNC(=N)N)NC(=O)[C@H](C)NC(=O)[C@H](Cc1ccccc1)NC(=O)[C@H](CCC(=O)O)NC(=O)[C@H](CCC(=O)O)NC(=O)[C@H](CC(=O)O)NC(=O)[C@H](CC(=O)O)NC(=O)[C@H](Cc1c[nH]cn1)NC(=O)[C@H](Cc1c[nH]c2ccccc12)NC(=O)[C@H](C)NC(=O)[C@@H](N)CCSC)C(N)=O` (stereo partly drawn) has a tissue distribution of 0.92% and 0.85% and 0.74% (C57BL/6 mouse female, heart; dose not given, 6 h; baseline: total).
`COc1cnc2cccc(N3CCc4c(cc(Cn5ccnc5)cc4-c4cn(C)nc4C(F)(F)F)C3=O)c2c1` gave a body weight of 22.2 g and 23 g and 22.8 g and 25.5 g and 22.7 g (BALB/c nude mice, MV4-11 xenograft; intraperitoneal, 75 mg/kg, day 14).
The SUVmean of `CC[C@H](C)[C@H](NC(=O)[C@H](CCCCN)NC(=O)CNC(=O)[C@H](CC(C)C)NC(=O)[C@H](Cc1ccccc1)NC(=O)[C@H](CCCCN)NC(=O)[C@H](CO)NC(=O)[C@H](Cc1ccccc1)NC(=O)[C@H](Cc1c[nH]c2ccccc12)NC(=O)[C@H](CCC(N)=O)NC(=O)[C@@H](NC(=O)[C@H](Cc1ccccc1)NC(=O)CCCCCNC(=O)CN1CCN(CC(=O)O)CCN(CC(=O)O)CCN(CC(=O)O)CC1)C(C)C)C(=O)N[C@@H](CCC(=O)O)C(=O)N1CCC[C@H]1C(=O)N[C@@H](CC(=O)O)C(=O)N[C@H](C(=O)N[C@@H](CO)C(=O)N[C@@H](CCC(N)=O)C(=O)N[C@H](C(=O)N[C@@H](CCC(N)=O)C(=O)N[C@@H](CC(=O)O)C(=O)N1CCC[C@H]1C(=O)N[C@@H](CC(N)=O)C(=O)N[C@@H](CC(=O)O)C(=O)N[C@@H](CCC(N)=O)C(=O)N[C@@H](Cc1ccc(O)cc1)C(=O)N[C@@H](CCC(=O)O)C(=O)N1CCC[C@H]1C(=O)N[C@@H](Cc1ccccc1)C(=O)O)C(C)C)C(C)C` [copper-64 labelled] is reported as 0.03 SUV (dynamic PET; mouse both sexes, CT26 tumour, untreated, tumour; intravenous, 100 µCi/mouse, 10 s).
For `N=C(N)NCCC[C@@H](NC(=O)[C@H](N)Cc1c[nH]c2ccccc12)C(=O)N[C@H](CCCCN)C(=O)N[C@H](Cc1c[nH]c2ccccc12)C(=O)N[C@H](CCCNC(=N)N)C(=O)N[C@H](CCCCN)C(=O)N[C@H](Cc1c[nH]c2ccccc12)C(=O)N[C@H](CCCNC(=N)N)C(=O)N[C@H](CCCCN)C(=O)N[C@H](Cc1c[nH]c2ccccc12)C(=O)N[C@H](CCCNC(=N)N)C(=O)N[C@H](CCCCN)C(N)=O`, the organ index was 4.84 (mouse, liver; intravenous, 40 mg/kg single dose, 7 days).
For `CS(=O)(=O)c1cc(Cl)cc(-c2cc(Cl)c(Cl)cc2Cl)c1Cl`, “final permeate concentration” read 0.53 nM (ultrafiltration; cow milk whey; 20 nM nominal in whole milk).
Under “serum hepatic lipase activity”, `O=C1NC2(CC2)COc2ncc(F)cc2[C@H]2COCCN2c2ccn3ncc1c3n2` is recorded as 3.5 ± 0.3 U/L (Sprague-Dawley rat, female, serum; oral, 10 mg/kg/day, end of recovery, 4-week subacute toxicity).
`CC[C@H](C)[C@H](NC(=O)[C@H](C)NC(=O)[C@H](CCCCN)NC(=O)[C@H](CC(C)C)NC(=O)[C@@H](N)Cc1ccccc1)C(=O)N[C@@H](CCCCN)C(=O)N[C@@H](CCCCN)C(=O)N[C@@H](Cc1ccccc1)C(=O)NCC(=O)N[C@@H](CCCCN)C(=O)N[C@@H](CCC(=O)O)C(=O)N[C@@H](Cc1ccccc1)C(=O)N[C@@H](CCCCN)C(=O)N[C@@H](CCCCN)C(=O)N[C@H](C(=O)NCC(=O)N[C@@H](C)C(=O)N[C@@H](CCCCN)C(=O)N[C@@H](CC(C)C)C(=O)N[C@@H](CCCCN)C(=O)O)[C@@H](C)CC` gave a hemolysis of 0.143% (human red blood cells; 0.5 mg/L, 1 h).
`CSCC[C@H](NC(=O)CNC(=O)[C@H](CCCCN)NC(=O)[C@H](CC(C)C)NC(=O)[C@@H]1CCCN1C(=O)[C@H](CO)NC(=O)[C@H](Cc1c[nH]cn1)NC(=O)[C@H](Cc1c[nH]c2ccccc12)NC(=O)[C@H](CCCNC(=N)N)NC(=O)[C@H](CC(C)C)NC(=O)[C@H](CCCNC(=N)N)NC(=O)[C@H](Cc1c[nH]c2ccccc12)NC(=O)[C@H](CS)NC(=O)CCCCCNC(=O)CN1CCN(CC(=O)O)CCN(CC(=O)O)CCN(CC(=O)O)CC1)C(=O)O` [copper-64 labelled] has a tissue uptake of 1.32 %ID/g (ex vivo biodistribution; C57BL/6J mice bearing B16-F10 tumours, thymus; intravenous, 1.85 MBq, 30 h).

Some of these lines once more:
`CSCC[C@H](N)C(=O)N[C@@H](C)C(=O)N[C@@H](Cc1c[nH]c2ccccc12)C(=O)N[C@@H](Cc1c[nH]cn1)C(=O)N[C@@H](CC(=O)O)C(=O)N[C@@H](CC(=O)O)C(=O)N[C@@H](CCC(=O)O)C(=O)N[C@@H](CCC(=O)O)C(=O)N[C@@H](Cc1ccccc1)C(=O)N[C@@H](C)C(=O)N[C@@H](CCCNC(=N)N)C(=O)N[C@@H](CCCNC(=N)N)C(=O)N[C@@H](CCCNC(=N)N)C(=O)N[C@@H](CCCNC(=N)N)C(=O)NCCCCCC(=O)NCCCCC(NC(=O)CCCCCNC(=O)[C@H](CCCNC(=N)N)NC(=O)[C@H](CCCNC(=N)N)NC(=O)[C@H](CCCNC(=N)N)NC(=O)[C@H](CCCNC(=N)N)NC(=O)[C@H](C)NC(=O)[C@H](Cc1ccccc1)NC(=O)[C@H](CCC(=O)O)NC(=O)[C@H](CCC(=O)O)NC(=O)[C@H](CC(=O)O)NC(=O)[C@H](CC(=O)O)NC(=O)[C@H](Cc1c[nH]cn1)NC(=O)[C@H](Cc1c[nH]c2ccccc12)NC(=O)[C@H](C)NC(=O)[C@@H](N)CCSC)C(=O)NCCCCC(NC(=O)C(CCCCNC(=O)CCCCCNC(=O)[C@H](CCCNC(=N)N)NC(=O)[C@H](CCCNC(=N)N)NC(=O)[C@H](CCCNC(=N)N)NC(=O)[C@H](CCCNC(=N)N)NC(=O)[C@H](C)NC(=O)[C@H](Cc1ccccc1)NC(=O)[C@H](CCC(=O)O)NC(=O)[C@H](CCC(=O)O)NC(=O)[C@H](CC(=O)O)NC(=O)[C@H](CC(=O)O)NC(=O)[C@H](Cc1c[nH]cn1)NC(=O)[C@H](Cc1c[nH]c2ccccc12)NC(=O)[C@H](C)NC(=O)[C@@H](N)CCSC)NC(=O)CCCCCNC(=O)[C@H](CCCNC(=N)N)NC(=O)[C@H](CCCNC(=N)N)NC(=O)[C@H](CCCNC(=N)N)NC(=O)[C@H](CCCNC(=N)N)NC(=O)[C@H](C)NC(=O)[C@H](Cc1ccccc1)NC(=O)[C@H](CCC(=O)O)NC(=O)[C@H](CCC(=O)O)NC(=O)[C@H](CC(=O)O)NC(=O)[C@H](CC(=O)O)NC(=O)[C@H](Cc1c[nH]cn1)NC(=O)[C@H](Cc1c[nH]c2ccccc12)NC(=O)[C@H](C)NC(=O)[C@@H](N)CCSC)C(N)=O` (stereo partly drawn) has a tissue distribution of 0.92% and 0.85% and 0.74% (C57BL/6 mouse female, heart; dose not given, 6 h; baseline: total).
